Results of several laboratories.
Compare with care: the assays were run in different laboratories. ± gives the spread as reported. Ends that are not written are not given here.
rep main protease: Replicase polyprotein 1ab, main protease (rep, Severe acute respiratory syndrome coronavirus 2, UniProt P0DTD1)
Spike glycoprotein: Spike glycoprotein (Severe acute respiratory syndrome coronavirus 2, UniProt P0DTC2)

O=C(NCc1ccccc1Cl)C1CCCN(Cc2cccc(-c3ccc(F)cc3F)c2)C1 (stereo not drawn)
efficacy (SARS-CoV-2; cytopathic effect; USA_WA1/2020; round 1, 5-point): 52.1%

CC(C)C1CN(C(=O)CCc2cnccn2)CCCN1Cc1ccc(F)cc1 (stereo not drawn)
remaining activity (Lassa mammarenavirus; viral replication; Huh-7; 10 µM, 72 h): 63%

TLADAGFIK
frequency of responding donors (AIM; peptide, CD8+ T cells from PBMC, human donors; HLA-A*03:01 restricted, unit not given; reference: positive over tested donors): 25

COP(=S)(OC)Oc1ccc([N+](=O)[O-])c(C)c1
Vmax (rat CYP1A; ethoxyresorufin O-deethylation; liver microsomes; concentration not given): 0.32 ± 0.04 nmol/min/mg protein

PaFS D92A (Diaporthe amygdali)
Km (CC(C)=CCC/C(C)=C/COP(=O)(O)OP(=O)(O)O; steady-state kinetics): 2.1 µM

Cc1nc2n(n1)CC(=O)N[C@@H](C(C)C)CN(C(=O)C1CCC1)CC(=O)N[C@@H](CC(C)C)c1nc(cs1)C(=O)N[C@H]2Cc1ccccc1
remaining activity (Lassa mammarenavirus; viral replication; Huh-7; 10 µM, 72 h): 81%

Theaflavin 3,3'-digallate
inhibition (rep main protease; enzyme activity, mKate2 fluorescence reporter; SARS-CoV-2; 20 µM): -1.4%

Cc1cc(C)c2[nH]c(C(=O)N3CCOC(c4ccc(F)cc4)C3)c(C)c2c1 (stereo not drawn)
remaining activity (Lassa mammarenavirus; viral replication; Huh-7; 10 µM, 72 h): 58%

CN(C)CCCN1c2ccccc2Sc2ccc(Cl)cc21
IC50 (A2780cis; cell growth or viability, neutral red; dark): 112 µM

p2o (Trametes ochracea, UniProt Q7ZA32)
kcat (CN(C)c1ccc2nc3ccc(N(C)C)c([N+](=O)[O-])c3[s+]c2c1; steady-state kinetics; pH 6.5, 22 °C, apparent): 1.63 ± 0.1 s⁻¹

cysH (Mycobacterium tuberculosis, UniProt P9WIK3)
kcat/Km (Nc1ncnc2c1ncn2[C@@H]1O[C@H](COP(=O)(O)OS(=O)(=O)O)[C@@H](O)[C@H]1O; steady-state kinetics; pH 7.5): 5500 ± 33.3 M⁻¹ s⁻¹

CCN1CC(=O)N[C@@H](CC(C)C)c2nc(cs2)C(=O)N[C@@H](Cc2ccccc2)c2nc(C)nn2CC(=O)N[C@@H](C(C)C)C1
remaining activity (Lassa mammarenavirus; viral replication; Huh-7; 10 µM, 72 h): 92%

Nc1ncnc2c([C@@H]3N[C@H](CO)[C@@H](O)[C@H]3O)c[nH]c12
inhibition (Marburg virus; viral RNA in cell lysate; HeLa, Musoke; 0.4 µM, 1 h): 25.1%

CC[C@H](OC(C)=O)C(C[C@H](C)NC)(c1ccccc1)c1ccccc1
maximal inhibition (HeLa; Ebola VLP entry): 102%

QPLRKLCILHRNPGRCYQKIPAFYYNQKKKQCEGFTWSGCGGNSNRFKTIEECRRTCIRK (dendrotoxin I; ends and bridges not checked; cysteine pairing not given here; sequence looked up)
dwell time, double occupancy (maxi-KCa channel, rat muscle; channel block, planar bilayer single-channel; concentration not given, nearly blocked state, together with: BPTI): ~1 s

COc1ccccc1-c1cccc(CN2CCCC(C(=O)NCc3ccc(F)cc3)C2)c1 (stereo not drawn)
AC50 (SARS-CoV-2; cytopathic effect, cell-based CPE; USA_WA1/2020; round 1, 5-point dilution): 12.6 µM

O=C1Nc2ccc(Cl)cc2[C@@](C#CC2CC2)(C(F)(F)F)O1
EC50 (HIV-1; viral replication, single-round infection; RT mutant M184V): 0.0003 ± 0.0001 µM

CNC(=O)[C@@H](NC(=O)[C@H](CC(C)C)[C@H](O)C(=O)NO)C(C)(C)C
remaining fibrinogen Bβ chain (human fibrinogen; SDS-PAGE; Daboia russelii; concentration not given, unit not given, together with: PB venom; reference: untreated fibrinogen): 0.841

COc1ccc(CCNC(=O)c2cc(Nc3ccccc3)nc3ccccc23)cc1OC
AC50 (SARS-CoV-2; cytopathic effect, cell-based CPE; USA_WA1/2020; round 1, 5-point dilution): 12.6 µM

CNCc1cc(-c2ccc(C)c3ncccc23)ccc1OC
remaining activity (Lassa mammarenavirus; viral replication; Huh-7; 10 µM, 72 h): 33%

NC(=O)CCNC(=O)c1ccccc1S
EC50 (HIV-1; viral replication; human PBMC, subtype D 92UG024, CXCR4-tropic clinical isolate): 2.13 ± 0.04 µM

Cn1c(Cn2ccc(C(F)(F)F)c(Oc3cc(Cl)cc(C#N)c3)c2=O)n[nH]c1=O
EC50 (HIV-1; viral replication, single-round infection; RT mutant G190A): 0.0012 ± 0.0004 µM

Cc1cccc(-c2ccc(NC(=O)C3CCN(C(=O)CSc4ccncc4)CC3)cc2)c1
remaining activity (Lassa mammarenavirus; viral replication; Huh-7; 10 µM, 72 h): 29%

BKRF4 fragment D81A/W84A/P86A/Y94A (Epstein-Barr virus)
unwrapping force (H2A/H2B dimer (Homo sapiens); magnetic tweezers; inner wrap; alanine mutant): 12 pN

COc1ccccc1-c1ccc(CN2CCC(NC(=O)Cc3ccc(F)cc3)C2)cc1 (stereo not drawn)
AC50 (SARS-CoV-2; cytopathic effect, cell-based CPE; USA_WA1/2020; round 1, 5-point dilution): 12.6 µM

Cc1cc(/C=C/C#N)cc(C)c1Nc1ccnc(Nc2ccc(C#N)cc2)n1
EC50 (HIV-1; viral replication, single-round infection; RT mutant K101E/M184I): 0.0007 ± 0.0001 µM

Aprotinin
inhibition (rep main protease; enzyme activity, Gaussia luciferase reporter; SARS-CoV-2; 20 µM): 2.55%

COc1ccc(N2CCN(CCCNC(=O)c3cc(Nc4ccc(OC)cc4OC)nc4ccccc34)CC2)cc1
efficacy (SARS-CoV-2; cytopathic effect; USA_WA1/2020; round 2, 5-point): 80.1%

RYLALYNKYKYFSGA
responding donors (human CD4 T cells; AIM; peptide): 15%

Cc1cc(C)cc(-c2ccc(CN3CCCC3C(=O)NCc3cccc(F)c3)cc2)c1 (stereo not drawn)
AC50 (SARS-CoV-2; cytopathic effect, cell-based CPE; USA_WA1/2020; round 1, 5-point dilution): 12.6 µM

FHQECSLQSCTQHQP
responding donors (human CD4 T cells; AIM; peptide): 18%

FolB (Mycobacterium tuberculosis, UniProt P9WNC5)
kcat (Nc1nc2c(c(=O)[nH]1)N=C([C@H](O)[C@H](O)CO)CN2; steady-state kinetics; pH 7, 25 °C): 0.0054 ± 0.0002 s⁻¹

Cc1cc(/C=C/C#N)cc(C)c1-n1cnc2cnc(Nc3ccc(/C=C/C#N)cc3)nc21
EC50 (HIV-1; viral replication, single-round infection; RT mutant V106A/L234I): 0.0366 ± 0.0024 µM

VTKNSKVQIGEYTFE
responding donors (human CD4 T cells; AIM; peptide): 8%

CCCC(=O)OCSc1ccccc1C(=O)NCCC(N)=O
EC50 (HIV-1; viral replication; human PBMC, subtype G G3, CCR5-tropic clinical isolate): 5.39 ± 4.09 µM

YCIDGALLTKSSEYK
responding donors (human CD4 T cells; AIM; peptide): 7%

O=C(NCC1(c2cccc(F)c2)CCOCC1)c1cnn[nH]1
remaining activity (Lassa mammarenavirus; viral replication; Huh-7; 10 µM, 72 h): 41%

LPNNTASWF
frequency of responding donors (AIM; peptide, CD8+ T cells from PBMC, human donors; HLA-B*07:02 restricted, unit not given; reference: positive over tested donors): 33

O=C1NCN(c2ccccc2)C12CCN(CCCOc1ccc(F)cc1)CC2
maximal inhibition (HeLa; Ebola VLP entry): 76%

CNc1cc(C)nc(N2C[C@@H]3NC(=O)CCCNC(=O)c4cccc(c4)-c4cccc(c4)CO[C@H]3C2)n1
remaining activity (Lassa mammarenavirus; viral replication; Huh-7; 10 µM, 72 h): 61%

Tubeimoside I
Kd (Spike glycoprotein; biolayer interferometry): 58 µM

CCc1c(C(=O)C(N)=O)c2c(OCC(=O)O)cccc2n1Cc1ccccc1
viability difference (C2C12; 10 µM, together with: MH venom; reference: venom alone): 12.1%

CC(Nc1nc(N2CCN(CCN)CC2)nc2ccccc12)c1ccccc1 (stereo not drawn)
maximum response (SARS-CoV-2; cytopathic effect; USA_WA1/2020; retest 8-point): 78.3%

LTGTGVLTESNKKFL
responding donors (human CD4 T cells; AIM; peptide): 7%

Cc1cc(/C=C/C#N)cc(C)c1Nc1nc(Nc2ccc(/C=C/C#N)cc2)ncc1N
EC50 (HIV-1; viral replication, single-round infection; RT mutant D67E): 0.0034 ± 0.0005 µM

bavachinin
Kd (Spike glycoprotein; binding; 1:1 binding model): 11.8 µM

COc1ccc2cc3[n+](cc2c1OC)CCc1cc2c(cc1-3)OCO2
inhibition (SARS-CoV-2 spike protein; Vero C1008; 10 µg/mL): 94 ± 2.1%

LLEQWNLVIGFLFLT
responding donors (human CD4 T cells; AIM; peptide): 13%

O=C(NCCN1CCCCC1)c1ccc(-c2ccc(N3CCSCC3)nc2)cc1
efficacy (SARS-CoV-2; cytopathic effect; USA_WA1/2020; round 2, 5-point): 57.4%

Cc1cn([C@H]2C[C@H](N=[N+]=[N-])[C@@H](CO)O2)c(=O)[nH]c1=O
EC50 (HIV-1; viral replication; human PBMC, subtype C 93MW959, CCR5-tropic clinical isolate): 0.00436 ± 0.00247 µM

LPYAK
transition enthalpy (DSC; peptide, 6/4 SOPC/cholesterol bilayers; 10 mol%, pH 7.40, SOPC chain melting transition): 0.3 kcal/mol
